Measurements gathered from unrelated publications.
Every numbered part comes from another study and shows a few of its results, in no order.

Study 1
Target: Histone acetyltransferase KAT6A, winged helix 1, GST fusion (KAT6A, Homo sapiens, UniProt Q92794, residues 1-85)
Method: protein binding microarray
Molecule type: double-stranded DNA, one strand shown
Sample: in vitro
Tested at: not given
Notes: 8-mer, flanks averaged, mean of 2 arrays, mostly near background
Baseline: not given
Reading: higher = stronger binding
Construct (chain): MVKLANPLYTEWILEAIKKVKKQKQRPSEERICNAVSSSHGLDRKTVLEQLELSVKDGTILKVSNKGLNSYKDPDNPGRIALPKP
| Sequence | E-score |
| --- | --- |
| CGGCGGTC | 0.42 |
| AAGCCGAT | 0.153 |
| AGAAACAG | -0.0866 |

Study 2
Target: Sal-like protein 4, full length isoform A (SALL4, Homo sapiens, UniProt Q9UJQ4, residues 1-1053)
Chain of UniProt Q9UJQ4 (whole entry, looked up): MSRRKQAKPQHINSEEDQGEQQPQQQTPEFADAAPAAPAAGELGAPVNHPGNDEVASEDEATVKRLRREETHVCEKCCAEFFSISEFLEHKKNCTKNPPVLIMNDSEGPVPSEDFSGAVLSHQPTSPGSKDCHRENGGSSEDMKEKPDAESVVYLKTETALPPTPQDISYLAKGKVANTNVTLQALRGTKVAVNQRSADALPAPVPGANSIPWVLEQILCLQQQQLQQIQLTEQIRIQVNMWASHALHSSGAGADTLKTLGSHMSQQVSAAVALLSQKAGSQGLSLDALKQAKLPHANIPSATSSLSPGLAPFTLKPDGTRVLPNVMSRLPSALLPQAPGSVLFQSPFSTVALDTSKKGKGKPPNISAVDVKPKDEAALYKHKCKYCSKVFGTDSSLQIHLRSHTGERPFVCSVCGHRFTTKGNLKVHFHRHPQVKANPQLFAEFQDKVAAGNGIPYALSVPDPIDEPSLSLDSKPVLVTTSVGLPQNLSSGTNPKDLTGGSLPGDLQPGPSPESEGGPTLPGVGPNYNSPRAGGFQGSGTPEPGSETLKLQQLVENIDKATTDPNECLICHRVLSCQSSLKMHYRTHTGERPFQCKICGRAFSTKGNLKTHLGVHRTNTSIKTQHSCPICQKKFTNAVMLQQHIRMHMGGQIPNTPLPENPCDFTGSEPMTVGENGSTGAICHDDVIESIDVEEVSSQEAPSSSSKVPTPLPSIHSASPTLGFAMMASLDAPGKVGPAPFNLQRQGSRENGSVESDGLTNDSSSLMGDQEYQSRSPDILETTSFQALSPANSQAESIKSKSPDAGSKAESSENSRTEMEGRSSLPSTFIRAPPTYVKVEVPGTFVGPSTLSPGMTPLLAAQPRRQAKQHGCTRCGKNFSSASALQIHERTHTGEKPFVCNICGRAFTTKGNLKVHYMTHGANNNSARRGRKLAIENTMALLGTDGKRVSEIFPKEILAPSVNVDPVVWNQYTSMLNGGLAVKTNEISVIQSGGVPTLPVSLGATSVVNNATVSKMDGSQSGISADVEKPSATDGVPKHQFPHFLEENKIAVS
Method: universal PBM
Molecule type: double-stranded DNA, one strand shown
Sample: in vitro
Tested at: 600 nM
Notes: 8-mer, flanks averaged, mean of replicates
Reading: higher = stronger binding
| Sequence | E-score |
| --- | --- |
| AGAAATCT | 0.205 |
| AGGCCTTG | -0.324 |
| CGCATGAG | -0.0543 |

Other studies, line by line
RBFOX2 RRM domain, GST-SBP tag: RNA binding protein fox-1 homolog 2, RRM domain, GST-SBP tag (RBFOX2, Homo sapiens, UniProt O43251-10, residues 100-194)
| Molecule | target | assay | test system | setting | how to read | endpoint | value |
| --- | --- | --- | --- | --- | --- | --- | --- |
| GGGAGUUCUACAGUCCGACGAUCUCUUAAGAGUCCCUGCAUGUAAAUCUCAAAGCUGAGCCUGGCUCCCAGAGUCCAGACUGACAUUACAGCGCAAGAGUUUGCAAGUGUGUCCAGCAUGCACCAACUGUGCAUGGAAUUCUCGGGUGCCAA | RBFOX2 RRM domain, GST-SBP tag | RNA Bind-n-Seq | RNA, in vitro | 365 nM, natural RNA segment, single round, ends assumed | baseline: no-protein control, higher = stronger binding | RBNS enrichment (R) | 4 |
| PhoQ, residues 284 288 289 292 302 303 SSCLAV | PhoP, residues 12 14 15 18 19 NQCAL (Escherichia coli, UniProt P23836) | Sort-seq, item: YFP reporter | E. coli | PhoQ-PhoP variant library, with: 10 µM Mg2+ | baseline: high Mg2+ state, higher = stronger signaling | fold induction | 17.4 |
| GGGAGUUCUACAGUCCGACGAUCAGGGAGGGGCCGAUGCUGCCACCACCCAGCCUUCUCUUUAUUUUCAGUGCUUUUUGUUUGGCCUCCCUGCCCCCAUGUUUUUCUGGCUGGGAGCUCUUGGUUACCCCCUUUGGAAUUCUCGGGUGCCAA | RBFOX2 RRM domain, GST-SBP tag | RNA Bind-n-Seq | RNA, in vitro | 365 nM, natural RNA segment, single round, ends assumed | baseline: no-protein control, higher = stronger binding | RBNS enrichment (R) | 0.664 |

Some of these lines once more (other studies, line by line):
| Molecule | target | assay | test system | setting | how to read | endpoint | value |
| --- | --- | --- | --- | --- | --- | --- | --- |
| GGGAGUUCUACAGUCCGACGAUCAGGGAGGGGCCGAUGCUGCCACCACCCAGCCUUCUCUUUAUUUUCAGUGCUUUUUGUUUGGCCUCCCUGCCCCCAUGUUUUUCUGGCUGGGAGCUCUUGGUUACCCCCUUUGGAAUUCUCGGGUGCCAA | RBFOX2 RRM domain, GST-SBP tag | RNA Bind-n-Seq | RNA, in vitro | 365 nM, natural RNA segment, single round, ends assumed | baseline: no-protein control, higher = stronger binding | RBNS enrichment (R) | 0.664 |
